Experimental data collected from several papers.
Compare with care: the assays were run in different laboratories. Values joined by “and” are separate records of one study, mostly repeats; a detail may differ. Numbers after ± are the reported error.
PKLR: Pyruvate kinase PKLR (PKLR, Homo sapiens, UniProt P30613)
UniProt P30613, sequence (whole entry, looked up): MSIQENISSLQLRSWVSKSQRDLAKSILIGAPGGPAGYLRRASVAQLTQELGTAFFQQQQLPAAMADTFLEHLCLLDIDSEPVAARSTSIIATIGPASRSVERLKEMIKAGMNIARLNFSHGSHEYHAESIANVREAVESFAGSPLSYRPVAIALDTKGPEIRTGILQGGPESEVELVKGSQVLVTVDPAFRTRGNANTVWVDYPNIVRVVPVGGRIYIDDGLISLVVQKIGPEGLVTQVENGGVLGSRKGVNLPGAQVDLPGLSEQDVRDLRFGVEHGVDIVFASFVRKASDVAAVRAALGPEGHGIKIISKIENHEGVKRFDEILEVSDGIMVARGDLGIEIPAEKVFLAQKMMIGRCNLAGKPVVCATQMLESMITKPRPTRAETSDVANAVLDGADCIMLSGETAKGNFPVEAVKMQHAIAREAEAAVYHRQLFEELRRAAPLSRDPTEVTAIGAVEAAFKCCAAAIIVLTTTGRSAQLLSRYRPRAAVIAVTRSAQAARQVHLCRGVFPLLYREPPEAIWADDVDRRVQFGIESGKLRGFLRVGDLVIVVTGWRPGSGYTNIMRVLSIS
YWHAG/RELA phospho-Ser45 p65 peptide: YWHAG/RELA, phospho-Ser45 p65 peptide (Homo sapiens, UniProt P61981+Q04206)
UniProt Q04206, sequence (whole entry, looked up): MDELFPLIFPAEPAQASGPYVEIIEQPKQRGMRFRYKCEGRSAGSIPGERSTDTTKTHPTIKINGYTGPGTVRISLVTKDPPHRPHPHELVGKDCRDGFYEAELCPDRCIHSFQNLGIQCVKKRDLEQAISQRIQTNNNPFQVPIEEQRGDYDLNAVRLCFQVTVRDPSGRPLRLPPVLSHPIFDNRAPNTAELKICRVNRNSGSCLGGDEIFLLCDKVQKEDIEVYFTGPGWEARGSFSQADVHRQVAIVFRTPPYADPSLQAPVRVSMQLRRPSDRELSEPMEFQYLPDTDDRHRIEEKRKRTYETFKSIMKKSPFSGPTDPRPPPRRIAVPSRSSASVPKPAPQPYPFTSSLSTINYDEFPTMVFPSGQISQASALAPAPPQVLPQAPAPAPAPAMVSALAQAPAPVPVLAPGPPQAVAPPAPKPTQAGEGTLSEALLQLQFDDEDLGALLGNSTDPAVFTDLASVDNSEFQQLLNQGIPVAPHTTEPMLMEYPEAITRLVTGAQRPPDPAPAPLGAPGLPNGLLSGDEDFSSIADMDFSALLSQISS
UniProt P61981, sequence (whole entry, looked up): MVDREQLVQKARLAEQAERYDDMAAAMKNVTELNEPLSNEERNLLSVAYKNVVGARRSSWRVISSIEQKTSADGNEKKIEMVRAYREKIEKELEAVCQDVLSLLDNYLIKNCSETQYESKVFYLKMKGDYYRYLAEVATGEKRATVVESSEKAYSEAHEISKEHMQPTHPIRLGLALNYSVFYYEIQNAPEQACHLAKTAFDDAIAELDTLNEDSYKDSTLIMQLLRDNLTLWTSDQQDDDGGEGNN
PPARA: Peroxisome proliferator-activated receptor alpha (PPARA, Homo sapiens, UniProt Q07869)
UniProt Q8N884, sequence (whole entry, looked up): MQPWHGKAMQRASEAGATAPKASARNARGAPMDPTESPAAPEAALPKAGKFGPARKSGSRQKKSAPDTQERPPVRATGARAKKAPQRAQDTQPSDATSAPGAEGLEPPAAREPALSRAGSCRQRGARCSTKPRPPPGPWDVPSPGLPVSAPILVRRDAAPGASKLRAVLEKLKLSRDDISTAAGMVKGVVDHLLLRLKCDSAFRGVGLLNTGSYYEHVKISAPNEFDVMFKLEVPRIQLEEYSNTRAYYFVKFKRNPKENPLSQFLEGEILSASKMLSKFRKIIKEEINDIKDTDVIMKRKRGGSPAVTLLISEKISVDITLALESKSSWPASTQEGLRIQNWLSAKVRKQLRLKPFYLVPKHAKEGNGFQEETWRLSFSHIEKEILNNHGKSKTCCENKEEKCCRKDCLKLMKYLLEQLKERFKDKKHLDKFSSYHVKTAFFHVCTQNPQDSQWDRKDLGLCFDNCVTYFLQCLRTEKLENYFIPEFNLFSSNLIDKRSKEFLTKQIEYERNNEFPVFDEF
UniProt Q07869, sequence (whole entry, looked up): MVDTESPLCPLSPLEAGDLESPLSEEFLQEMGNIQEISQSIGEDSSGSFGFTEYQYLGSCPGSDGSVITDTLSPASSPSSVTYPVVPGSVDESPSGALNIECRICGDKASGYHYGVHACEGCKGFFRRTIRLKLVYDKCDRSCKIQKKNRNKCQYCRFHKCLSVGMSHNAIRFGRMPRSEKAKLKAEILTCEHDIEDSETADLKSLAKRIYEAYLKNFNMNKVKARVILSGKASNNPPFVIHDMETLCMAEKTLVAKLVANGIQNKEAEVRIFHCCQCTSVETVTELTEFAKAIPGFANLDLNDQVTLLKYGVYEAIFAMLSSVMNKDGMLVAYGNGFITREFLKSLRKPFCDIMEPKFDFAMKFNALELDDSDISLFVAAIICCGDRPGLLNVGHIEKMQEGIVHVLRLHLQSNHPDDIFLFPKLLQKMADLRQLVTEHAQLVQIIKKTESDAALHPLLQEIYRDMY
UniProt Q704Y3, sequence (whole entry, unmodified, looked up): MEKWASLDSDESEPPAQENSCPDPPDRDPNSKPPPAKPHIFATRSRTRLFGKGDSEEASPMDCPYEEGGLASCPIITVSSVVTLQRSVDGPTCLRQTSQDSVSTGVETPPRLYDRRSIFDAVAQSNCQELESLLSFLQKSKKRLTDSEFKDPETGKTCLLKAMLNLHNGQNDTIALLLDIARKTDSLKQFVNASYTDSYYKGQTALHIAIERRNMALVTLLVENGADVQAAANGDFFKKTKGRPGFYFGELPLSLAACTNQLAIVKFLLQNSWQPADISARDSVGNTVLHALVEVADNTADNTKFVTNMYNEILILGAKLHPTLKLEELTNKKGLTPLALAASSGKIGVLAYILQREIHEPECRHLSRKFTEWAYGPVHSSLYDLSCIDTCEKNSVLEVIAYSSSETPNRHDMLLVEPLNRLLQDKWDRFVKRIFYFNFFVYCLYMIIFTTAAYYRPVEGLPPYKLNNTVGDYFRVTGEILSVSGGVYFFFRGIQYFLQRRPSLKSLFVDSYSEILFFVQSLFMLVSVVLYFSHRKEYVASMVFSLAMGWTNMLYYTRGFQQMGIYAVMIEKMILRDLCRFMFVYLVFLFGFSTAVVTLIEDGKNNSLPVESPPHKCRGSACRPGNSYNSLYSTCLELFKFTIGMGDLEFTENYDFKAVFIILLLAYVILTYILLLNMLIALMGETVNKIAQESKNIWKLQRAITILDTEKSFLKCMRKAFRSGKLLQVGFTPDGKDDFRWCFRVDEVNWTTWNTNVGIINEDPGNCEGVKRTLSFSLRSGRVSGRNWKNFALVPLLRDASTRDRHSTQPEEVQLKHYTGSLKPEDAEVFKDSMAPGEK
UniProt Q96S38, sequence (whole entry, looked up): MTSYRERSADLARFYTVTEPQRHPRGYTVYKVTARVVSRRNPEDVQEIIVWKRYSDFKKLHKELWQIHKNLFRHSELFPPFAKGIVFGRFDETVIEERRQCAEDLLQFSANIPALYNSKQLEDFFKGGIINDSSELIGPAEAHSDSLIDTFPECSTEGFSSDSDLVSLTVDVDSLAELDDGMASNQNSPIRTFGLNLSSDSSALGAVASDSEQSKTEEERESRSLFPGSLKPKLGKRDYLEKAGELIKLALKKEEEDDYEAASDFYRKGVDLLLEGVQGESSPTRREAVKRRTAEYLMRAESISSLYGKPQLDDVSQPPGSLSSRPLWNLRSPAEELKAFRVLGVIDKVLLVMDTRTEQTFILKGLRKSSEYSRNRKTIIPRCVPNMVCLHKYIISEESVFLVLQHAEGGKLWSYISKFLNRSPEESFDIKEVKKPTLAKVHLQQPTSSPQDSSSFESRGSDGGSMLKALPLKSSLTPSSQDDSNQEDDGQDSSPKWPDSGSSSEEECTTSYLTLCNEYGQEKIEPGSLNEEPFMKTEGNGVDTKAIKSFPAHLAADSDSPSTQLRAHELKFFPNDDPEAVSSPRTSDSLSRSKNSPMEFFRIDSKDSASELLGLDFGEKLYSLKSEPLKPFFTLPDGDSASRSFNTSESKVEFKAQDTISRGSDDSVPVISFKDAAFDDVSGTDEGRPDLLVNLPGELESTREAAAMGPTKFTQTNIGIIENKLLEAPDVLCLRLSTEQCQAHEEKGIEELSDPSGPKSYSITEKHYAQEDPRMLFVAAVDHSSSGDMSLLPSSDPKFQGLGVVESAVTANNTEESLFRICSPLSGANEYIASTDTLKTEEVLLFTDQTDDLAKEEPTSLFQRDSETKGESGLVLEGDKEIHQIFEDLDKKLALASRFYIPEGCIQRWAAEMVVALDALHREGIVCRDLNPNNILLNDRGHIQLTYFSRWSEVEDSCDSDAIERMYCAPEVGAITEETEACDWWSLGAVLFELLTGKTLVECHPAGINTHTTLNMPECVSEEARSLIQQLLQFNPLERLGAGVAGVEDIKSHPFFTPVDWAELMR
UniProt P08913, sequence (whole entry, looked up): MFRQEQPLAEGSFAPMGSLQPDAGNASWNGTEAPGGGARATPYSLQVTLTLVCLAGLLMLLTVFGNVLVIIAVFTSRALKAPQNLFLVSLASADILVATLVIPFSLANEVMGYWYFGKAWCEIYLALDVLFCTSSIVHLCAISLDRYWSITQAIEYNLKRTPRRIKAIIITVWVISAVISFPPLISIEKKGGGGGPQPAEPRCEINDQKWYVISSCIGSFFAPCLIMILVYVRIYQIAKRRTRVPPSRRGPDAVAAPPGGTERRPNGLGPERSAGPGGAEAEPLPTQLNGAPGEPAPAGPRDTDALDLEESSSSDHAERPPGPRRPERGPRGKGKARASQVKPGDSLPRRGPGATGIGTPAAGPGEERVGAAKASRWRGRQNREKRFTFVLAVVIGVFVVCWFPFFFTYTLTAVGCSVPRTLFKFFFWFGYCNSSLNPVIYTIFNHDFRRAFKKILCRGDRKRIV
UniProt P10145, sequence (whole entry, looked up): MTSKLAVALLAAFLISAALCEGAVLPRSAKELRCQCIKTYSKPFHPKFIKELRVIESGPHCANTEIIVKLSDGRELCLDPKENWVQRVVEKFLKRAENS

SMILES | tested on | assay | test system | setting | how to read | quantity | result
O=C(COP(=O)(O)O)[C@@H](O)[C@H](O)[C@H](O)COP(=O)(O)O | PKLR | enzyme activity, activator |  | 30 min, 24 °C, together with: 0.125 mM PEP and 0.1 mM ADP |  | EC50 | 0.02 µM
CN(C)C(=O)CCc1nc(-c2ccccc2)c(-c2ccccc2)o1 | COS-7 |  |  | 100 µM, 24 h, 0.1% DMSO, unit not given | reference: control | necrosis | 0.86 ± 0.1
CC[C@@H]1[C@H](F)C(=O)N[C@@H]1COc1nccc2cc(C(N)=O)c(OC)cc12 | RPS6KC1 (Homo sapiens, UniProt Q96S38) | ATP-site binding, ActivX kinase profiling | THP-1 cell lysate | RSKL1 domain 1 ATP-site probe peptide |  | IC50 | > 5 µM
CCCCC[C@H](O)/C=C/[C@H]1[C@H](O)CC(=O)[C@@H]1C/C=C\CCCC(=O)O | PTGER1 (Homo sapiens, UniProt P34995, T186A) | IP1 accumulation, agonist | AD293 | EP1 T186A mutant |  | EC50 | 0.0442 µM
CCOCc1nc(O)c(-c2nnc(Cc3ccc(Cl)cn3)o2)c(O)c1-c1c(OC)cccc1OC | Apelin receptor (APLNR, Homo sapiens, UniProt P35414) | Gα13/PDZ–RhoGEF activation, agonist, BRET biosensor | HEK293 |  |  | EC50 | 0.0197 ± 0.00435 µM
CC(C)CN1CCN(c2cc(C=O)ccc2[N+](=O)[O-])CC1 | YWHAG/RELA phospho-Ser45 p65 peptide | ternary complex formation, stabilizer, fluorescence anisotropy |  |  |  | EC50 | > 1000 µM
CCOc1ccc(NC(=O)O[C@@H](Cn2nc(C(C)C)cc2C(C)C)C(C)C)cc1 | Neuronal acetylcholine receptor; alpha4/beta2 (Homo sapiens, UniProt P17787+P43681) | potentiation of ion current, potentiator, TEVC |  | low-sensitivity (α4)3(β2)2, together with: ACh 10 µM |  | EC50 | 1.3 ± 0.3 µM
O=S1(=O)N=C(Sc2ccccc2)c2ccccc21 | PKLR | enzyme activity, activator |  | 30 min, 24 °C, together with: 0.125 mM PEP and 0.1 mM ADP |  | EC50 | 6 µM
CO[C@H]1O[C@H](COS(=O)(=O)O)[C@@H](O[C@@H]2O[C@@H](C(=O)O)[C@@H](O[C@H]3O[C@H](COS(=O)(=O)O)[C@@H](O[C@@H]4O[C@H](C(=O)O)[C@@H](O[C@H]5O[C@H](COS(=O)(=O)O)[C@@H](O)[C@H](O)[C@H]5NS(=O)(=O)O)[C@H](O)[C@H]4O)[C@H](OS(=O)(=O)O)[C@H]3NS(=O)(=O)O)[C@H](O)[C@H]2OS(=O)(=O)O)[C@H](O)[C@H]1NS(=O)(=O)O | Interleukin-8 (CXCL8, Homo sapiens, UniProt P10145) | probe displacement, FP competition |  | protein 800 nM, together with: TAMRA-labelled sHA tetramer probe |  | EC50 | 90.4 ± 12.4 µM
COC1CN(c2cc(C=O)ccc2[N+](=O)[O-])C1 | YWHAG/RELA phospho-Ser45 p65 peptide | ternary complex formation, stabilizer, fluorescence anisotropy |  |  |  | EC50 | > 1000 µM
CCCCCCCC/C=C\CCCCCCCC(=O)NCCc1ccc(O)c(O)c1 | Trpv1 (Mus musculus, UniProt Q704Y3, D510E) | ion current, agonist, whole-cell patch clamp |  | 24 °C, D510E, +80 mV |  | EC50 | 0.33 ± 0.05 µM
COc1cc2c(c(O)c1OC)C(=O)c1c(cc(C)c(O)c1OC)C2=O | HepaRG co-cultured with HK-2 | MTT |  | 133.33 µM, 48 h | reference: untreated control | cell viability | 52.1 ± 2.79%
O=Cc1ccc([N+](=O)[O-])c(OC(=O)c2ccc(F)c(F)c2)c1 | YWHAG/RELA phospho-Ser45 p65 peptide | ternary complex formation, stabilizer, fluorescence anisotropy |  |  |  | EC50 | > 1000 µM
CN1CC2c3ccccc3Oc3ccc(Cl)cc3C2C1 (centres unmarked) | 5-hydroxytryptamine receptor 1A, with Goα P315D (HTR1A, Homo sapiens, UniProt P08908) |  |  |  |  | EC50 | 0.0197 µM
COCCN1CCN(c2cc(C=O)ccc2[N+](=O)[O-])CC1 | YWHAG/RELA phospho-Ser45 p65 peptide | ternary complex formation, stabilizer, fluorescence anisotropy |  |  |  | EC50 | > 1000 µM
COc1cc2c(c(O)c1OC)C(=O)c1c(cc(C)c(O[C@@H]3O[C@H](CO)[C@@H](O)[C@H](O)[C@H]3O)c1OC)C2=O | HepaRG co-cultured with HK-2 | MTT |  | 33.33 µM, 48 h | reference: untreated control | cell viability | 73.4 ± 15.4%
CC[C@H](C)[C@H](NC(=O)[C@@H]1CCCN1C(=O)CNC(=O)[C@H](Cc1ccccc1)NC(=O)[C@H](CC(N)=O)NC(=O)[C@H](CC(N)=O)NC(=O)[C@H](CO)NC(=O)[C@H](CO)NC(=O)[C@H](Cc1c[nH]cn1)NC(=O)[C@H](CCCNC(=N)N)NC(=O)[C@H](CC(C)C)NC(=O)[C@H](Cc1ccccc1)NC(=O)[C@H](CCC(=O)O)NC(=O)[C@H](C)NC(=O)[C@H](CC(C)C)NC(=O)[C@H](CCCNC(=N)N)NC(=O)[C@H](CCC(N)=O)NC(=O)[C@@H](NC(=O)[C@H](C)NC(=O)[C@@H]1CSSC[C@H](NC(=O)[C@H](CCCCN)NC(=O)CC[C@H](NC(=O)CCCCCCCCCCCCCCCCCCC(=O)O)C(=O)O)C(=O)N[C@@H](CC(N)=O)C(=O)N[C@@H]([C@@H](C)O)C(=O)N[C@@H](C)C(=O)N[C@@H]([C@@H](C)O)C(=O)N1)[C@@H](C)O)C(=O)N[C@@H](CC(C)C)C(=O)N1CCC[C@H]1C(=O)N1CCC[C@H]1C(=O)N[C@H](C(=O)N[C@@H](CC(N)=O)C(=O)N[C@H](C(=O)NCC(=O)N[C@@H](CO)C(=O)N[C@@H](CC(N)=O)C(=O)N[C@H](C(=O)N1CCC[C@H]1C(N)=O)[C@@H](C)O)C(C)C)[C@@H](C)O | Calcitonin receptor, isoform a (CALCR, Homo sapiens, UniProt P30988) | reporter gene, agonist, CRE-luciferase | BHK expressing CTR | 3 h |  | EC50 | 2.19e-06 µM
CN(c1cc(C=O)ccc1[N+](=O)[O-])C1CCOCC1 | YWHAG/RELA phospho-Ser45 p65 peptide | ternary complex formation, stabilizer, fluorescence anisotropy |  |  |  | EC50 | > 1000 µM
Cc1nn(-c2nc3c(F)cc(F)cc3s2)c(O)c1C(c1ccc(C(F)(F)F)cc1)c1c(C)nn(-c2nc3c(F)cc(F)cc3s2)c1O | Cyclic GMP-AMP synthase, catalytic domain; with DNA (CGAS, Homo sapiens, UniProt Q8N884) | cGAS phase separation, inhibitor |  |  |  | EC50 | 4.61 µM and 5.89 µM
CCN(CC)Cc1cc(Nc2ccnc3cc(Cl)ccc23)ccc1O | COS-7 |  |  | 30 µM, 24 h, 0.1% DMSO, unit not given | reference: vehicle control | necrotic cells | 0.35 ± 0.07
CC1(C)Cc2c(sc(NC(=O)c3ccn[nH]3)c2C(N)=O)C(C)(C)O1 | cftr (Danio rerio, UniProt Q1LX78) | chloride current, activator, inside-out patch clamp | CHO cells transfected |  |  | EC50 | 3.98 ± 1.74 µM
NC(=O)[C@@H]1CCCN1C(=O)[C@H](Cc1cnc[nH]1)NC(=O)[C@@H]1CCC(=O)N1 | TRHR (Homo sapiens, UniProt P34981) | agonist, cell-based |  |  |  | EC50 | 0.00151 µM
CCO[C@H](COc1ccc(C(F)(F)F)cc1)CSc1ccc(OCC(=O)O)c(C)c1 | PPARA | receptor activation, agonist, cell-based |  |  |  | EC50 | 3 µM
O=Cc1ccc(-n2cnc3ccccc32)nc1 | YWHAG/RELA phospho-Ser45 p65 peptide | ternary complex formation, stabilizer, fluorescence anisotropy |  |  |  | EC50 | > 1000 µM
O=C(O)CCCc1cc2cc(Cl)ccc2n1S(=O)(=O)c1ccc2ncsc2c1 | PPARA | receptor activation, agonist, cell-based |  |  |  | EC50 | 3 µM
O=Cc1ccc([N+](=O)[O-])c(N2CCC(N3CCCC3)CC2)c1 | YWHAG/RELA phospho-Ser45 p65 peptide | ternary complex formation, stabilizer, fluorescence anisotropy |  |  |  | EC50 | > 1000 µM
O=S1(=O)N=C(Oc2ccccc2)c2ccccc21 | PKLR | enzyme activity, activator |  | 30 min, 24 °C, together with: 0.125 mM PEP and 0.1 mM ADP |  | EC50 | > 100 µM
O=Cc1ccc([N+](=O)[O-])c(N2CCCC2c2ccccc2)c1 (centres unmarked) | YWHAG/RELA phospho-Ser45 p65 peptide | ternary complex formation, stabilizer, fluorescence anisotropy |  |  |  | EC50 | > 1000 µM
Nc1ccc(CNc2ccncc2)c(F)c1 | ADRA2A (Homo sapiens, UniProt P08913) | agonist, FLIPR reporter | reporter cell line |  |  | EC50 | 3.5 µM

Repeated from above:
SMILES | tested on | assay | test system | setting | how to read | quantity | result
O=Cc1ccc([N+](=O)[O-])c(OC(=O)c2ccc(F)c(F)c2)c1 | YWHAG/RELA phospho-Ser45 p65 peptide | ternary complex formation, stabilizer, fluorescence anisotropy |  |  |  | EC50 | > 1000 µM
CN1CC2c3ccccc3Oc3ccc(Cl)cc3C2C1 (centres unmarked) | 5-hydroxytryptamine receptor 1A, with Goα P315D (HTR1A, Homo sapiens, UniProt P08908) |  |  |  |  | EC50 | 0.0197 µM
COCCN1CCN(c2cc(C=O)ccc2[N+](=O)[O-])CC1 | YWHAG/RELA phospho-Ser45 p65 peptide | ternary complex formation, stabilizer, fluorescence anisotropy |  |  |  | EC50 | > 1000 µM
